# Measured values pooled from the literature.
# Numbered parts are unrelated; each lists some results of a single study. Positions count from the first letter of the parent shown.

# Block 1
# Target: Phosphate system positive regulatory protein PHO4, full length, GST-tagged (PHO4, Saccharomyces cerevisiae, UniProt P07270, residues 1-312)
# Method: competition protein-binding microarray
# Form: double-stranded DNA, one strand shown
# Medium: in vitro
# Tested at: 2 µM
# Notes: whole 60-bp probe, lowest competitor level
# Added: Cbf1 competitor, 0.05 µM
# Reading: higher = stronger binding
# Construct (chain): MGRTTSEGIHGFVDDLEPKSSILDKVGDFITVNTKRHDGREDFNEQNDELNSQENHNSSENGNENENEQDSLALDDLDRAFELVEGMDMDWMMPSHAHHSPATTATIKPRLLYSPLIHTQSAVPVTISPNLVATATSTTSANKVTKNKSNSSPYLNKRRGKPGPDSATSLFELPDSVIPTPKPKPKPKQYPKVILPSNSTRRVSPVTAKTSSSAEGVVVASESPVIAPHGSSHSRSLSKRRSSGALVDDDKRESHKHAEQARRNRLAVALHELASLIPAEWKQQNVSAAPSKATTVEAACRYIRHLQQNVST
Oligonucleotide,fluorescence intensity
GGGTAGCCCTCTCAACACGTGGAGGGTAACCTTTTCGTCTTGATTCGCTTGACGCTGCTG,15200 a.u.
GGATACTTGCTTGTTGACGTGCTTTTAGGCATCCTTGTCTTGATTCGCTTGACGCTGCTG,4730 a.u.
GAACCAAGACCGTCAAGCGTGCTTTTAAGGCTTTGAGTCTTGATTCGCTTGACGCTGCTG,6540 a.u.
CTAAAGTATATGACTCACGTGGTCGAAAGAAAGCGGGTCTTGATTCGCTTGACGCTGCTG,18900 a.u.
TTCATCGAATGCTTGCACATGCCAATGCACAGACAAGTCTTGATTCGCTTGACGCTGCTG,8780 a.u.
GTTACTATTCTTTGCATCGTGCATCGACTTACACCAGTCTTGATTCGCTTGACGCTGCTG,11200 a.u.
GAATGCTTCTGTCTCTGCGTGCTTTTCAAAGGAGAAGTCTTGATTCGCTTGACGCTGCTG,6760 a.u.
TGCGCAACAACTTGTACCGTGGGTGTATGTCTAGAAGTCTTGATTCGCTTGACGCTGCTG,6970 a.u.

# Block 2
# Target: CCNA1, cyclin fold, Cln2 fusion (human)
# Method: yeast growth competition, sequencing
# Medium: yeast
# Notes: weak parent motif
# Baseline: not given
# Reading: higher = stronger binding
# Starting sequence: INSM1 docking peptide (human); PKAIRKLHFEDEV; partner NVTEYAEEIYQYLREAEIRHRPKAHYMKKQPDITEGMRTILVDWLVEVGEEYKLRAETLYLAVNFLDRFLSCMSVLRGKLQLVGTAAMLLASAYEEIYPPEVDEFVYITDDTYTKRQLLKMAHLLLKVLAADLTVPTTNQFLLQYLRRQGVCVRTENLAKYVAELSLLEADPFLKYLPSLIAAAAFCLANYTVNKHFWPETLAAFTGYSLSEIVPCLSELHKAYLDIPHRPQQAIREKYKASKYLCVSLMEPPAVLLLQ
Substitution,normalised enrichment score
D11N,0.804
E10G,0.806
E10L,0.128
L7G,-0.244
E10P,0.636
D11E,0.759
H8E,0.534
K2D,-0.143
K2W,-0.0843

# Block 3
# Target: Sal-like protein 4, full length isoform B (SALL4, Homo sapiens, UniProt Q9UJQ4-2, residues 1-616)
# Method: universal PBM
# Form: double-stranded DNA, one strand shown
# Medium: in vitro
# Tested at: not given
# Notes: 8-mer, flanks averaged, mean of replicates
# Reading: higher = stronger binding
Oligonucleotide,E-score
AACTGAAC,-0.104
CTCACCAC,-0.14
AACGTACT,0.0923
CCATCTAC,0.0484
AAAGTTCG,-0.0158
GAGACTAC,-0.0874
ATGGGTGG,-0.0121

# Further values, each from its own experiment
Substance,target,assay,system,setting,how to read,endpoint,value
"PhoQ, residues 284 288 289 292 302 303 SQSLSM","PhoP, residues 12 14 15 18 19 LYHSL (Escherichia coli, UniProt P23836)","Sort-seq, refers to: YFP reporter",E. coli,"PhoQ-PhoP variant library, added: 10 µM Mg2+","baseline: high Mg2+ state, higher = stronger signaling",fold induction,0.75

# Repeated from above (block 3):
Oligonucleotide,E-score
AACTGAAC,-0.104
CCATCTAC,0.0484
